Results gathered from unrelated publications.
Numbered parts are unrelated; each lists some results of a single study. Changes are numbered by the printed parent chain.

Study 1 — target: JUND, bZIP domain (human); method: DHFR protein complementation; matrix: yeast; relative to: wild-type JUN-FOS pair; direction: higher = stronger binding
Notes: single substitutions, most at no-binding floor
Parent: JUN, bZIP domain (human); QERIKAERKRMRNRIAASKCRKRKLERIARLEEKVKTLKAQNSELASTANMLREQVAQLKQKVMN; partner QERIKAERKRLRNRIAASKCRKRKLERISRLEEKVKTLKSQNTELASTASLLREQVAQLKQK
Variant	binding fitness
A57S	-0.772 natural log
A57M	-0.888 natural log
E33M	-0.859 natural log
S47L	-0.638 natural log
S47I	-0.674 natural log
R30Y	-0.642 natural log
A57T	-0.769 natural log
R30M	-0.566 natural log
T48Y	-0.923 natural log
S47A	-0.443 natural log
N42Q	-0.833 natural log
M51E	-0.573 natural log
A40M	-0.895 natural log
A57R	-0.843 natural log
K34R	-0.557 natural log

Study 2 — method: DHFR PCA, deep sequencing; matrix: yeast; with: (+)-ABA 710 µM; relative to: wild-type fitted maximum; direction: higher = stronger binding
Target: ABI1, truncated, D143A, DHFR fusion (Arabidopsis thaliana)
Notes: methotrexate growth selection, single substitutions
Parent: PYL1, truncated, DHFR fusion (Arabidopsis thaliana); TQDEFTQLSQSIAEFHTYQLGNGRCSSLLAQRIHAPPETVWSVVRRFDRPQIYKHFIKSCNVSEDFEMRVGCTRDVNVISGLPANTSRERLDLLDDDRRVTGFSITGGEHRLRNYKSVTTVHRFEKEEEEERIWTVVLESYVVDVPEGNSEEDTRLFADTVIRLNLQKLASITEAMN; partner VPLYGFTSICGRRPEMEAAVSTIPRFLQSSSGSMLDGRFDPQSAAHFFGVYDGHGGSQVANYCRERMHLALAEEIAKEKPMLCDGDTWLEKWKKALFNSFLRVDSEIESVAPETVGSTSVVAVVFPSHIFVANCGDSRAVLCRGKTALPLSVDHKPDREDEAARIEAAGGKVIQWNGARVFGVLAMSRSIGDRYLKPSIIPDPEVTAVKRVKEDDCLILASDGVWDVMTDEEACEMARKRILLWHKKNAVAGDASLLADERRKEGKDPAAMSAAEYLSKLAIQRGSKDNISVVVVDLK
Variant	relative binding score
L91M	103%
Q2W	98.9%
Y53L	18.4%
S11K	102%
A84P	21.4%
D159G	89.6%
M68N	97.8%
T86E	98%
T135G	27.3%
E139Y	103%
T120R	8.91%
L156D	93.3%
P36S	96.3%
H55R	101%
V118C	110%
P36F	93.7%
E129L	109%
S63P	114%
L20F	98%
E130Q	112%

Study 3 — method: protein binding microarray; form: double-stranded DNA, one strand shown; matrix: in vitro; tested at: not given; relative to: not given; direction: higher = stronger binding
Target: Histone acetyltransferase KAT6A, winged helix 2, GST fusion (KAT6A, Homo sapiens, UniProt Q92794, residues 85-181)
Notes: 8-mer, flanks averaged, mean of 2 arrays, mostly near background
Construct (chain): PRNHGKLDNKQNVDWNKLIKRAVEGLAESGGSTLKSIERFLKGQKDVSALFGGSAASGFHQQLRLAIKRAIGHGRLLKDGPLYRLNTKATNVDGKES
Oligonucleotide	E-score
CATCCAGA	-0.0959
AGAAGCGC	0.126
CTTAGACC	-0.0268
AGACGAGG	-0.0147
ATGACCAC	-0.0278
AACAGTGA	-0.114
ACAAAGGA	-0.0669
GAAGGCCC	0.0778
TAATGTAA	-0.0721
CACGTAAG	-0.263
TAATGACA	-0.0947
ATGAGTTG	-0.077
CTTGGAAC	-0.0241
CTGAATAA	-0.00994
ACGCCGGG	0.174
GAAATGGC	-0.0382
ACTCTGTG	0.12
CCGGAAAC	0.154
CTTTCAAC	-0.00658
TACCCACA	-0.0296
GGGGGGAC	-0.00264
CCGGTAAA	-0.159
CCATTTTA	-0.017
TATTCCAA	0.192
ACGAGCTA	-0.0619

Study 4 — method: RNA Bind-n-Seq; form: RNA; matrix: in vitro; tested at: 200 nM; notes: whole 134-nt RNA, ends assumed; with: 150 mM KCl; relative to: input library; direction: higher = stronger binding
Target: Ras GTPase-activating protein-binding protein 1, full length (G3BP1, Homo sapiens, UniProt Q13283)
Chain of UniProt Q13283 (whole entry, looked up): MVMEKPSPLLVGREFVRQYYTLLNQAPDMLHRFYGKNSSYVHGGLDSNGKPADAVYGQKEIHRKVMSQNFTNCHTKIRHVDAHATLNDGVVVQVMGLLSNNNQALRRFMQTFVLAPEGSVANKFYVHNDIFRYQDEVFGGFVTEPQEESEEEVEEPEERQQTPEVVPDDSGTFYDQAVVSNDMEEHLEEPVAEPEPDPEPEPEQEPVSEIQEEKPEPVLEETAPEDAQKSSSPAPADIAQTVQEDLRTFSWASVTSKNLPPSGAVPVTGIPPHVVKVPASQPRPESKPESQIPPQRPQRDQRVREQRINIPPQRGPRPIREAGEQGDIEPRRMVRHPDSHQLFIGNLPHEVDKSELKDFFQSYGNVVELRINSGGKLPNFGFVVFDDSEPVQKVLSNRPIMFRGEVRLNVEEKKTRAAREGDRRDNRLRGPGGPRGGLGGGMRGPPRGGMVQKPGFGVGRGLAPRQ
Oligonucleotide	log2 enrichment
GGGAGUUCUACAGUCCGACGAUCGCAGGAAGUAAAAACUAAUGGAAAUGCUUCGGAUAGUGGCAGGGGUGGGGGUUGCUAAGGAAAGGGUGGGAUGGGAGUGGGUAAAGAGUUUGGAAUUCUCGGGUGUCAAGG	1.15
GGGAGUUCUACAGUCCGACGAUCGCCCAUGCUAAAGUAAGAUUGUCUAACAAAGUUGAAGCCAUUGAUGUGGAAGAGGCCAAACGCCUCCAUCGGGAAGCUCUGAAGCAGUCUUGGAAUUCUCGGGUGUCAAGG	-0.994
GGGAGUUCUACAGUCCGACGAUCAAGUCCUGUGCUACACAUCGUAUGUACCGAAUCGGGAAAAGGAAAAGGGGAAAAGGGAAAGUAUUAUGUUACGCCGUUCGGAUCUGCACUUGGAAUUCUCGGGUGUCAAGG	-0.465
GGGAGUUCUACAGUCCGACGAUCUGGGAGGUGGAUUUUGUUUAUUUUUUUAGCUCAUUUGCAGGGGUGGGAAUUUUUUUUUAAUAUGUGUCAUGAAUAAAGUUGUUUUUGAAAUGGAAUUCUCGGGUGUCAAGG	0.297
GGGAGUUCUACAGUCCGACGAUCUCAAGUCCUGUGCUACACAUCGUAUGUACCGAAUCGGGAAAGGGGAAAGGAAAGGAAAGUAUUAUGUUACGCCGUUCGGAUCUGCACUUCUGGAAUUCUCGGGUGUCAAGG	-0.872
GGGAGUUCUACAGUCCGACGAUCAAGUCCUGUGCUACACAUCGUAUGUACCGAAUCGGAAAAAAAGGUUUUUGGAAAGGAAAGUAUUAUGUUACGCCGUUCGGAUCUGCACUUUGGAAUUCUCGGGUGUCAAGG	-1.72
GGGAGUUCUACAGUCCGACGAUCUGGGAGGUGGAUUUUGUUUAUUUUUUUAGCUCAUUUCCAGGGGUGGGAAUUUUUUAUUAAUAUGUGUCAUGAAUAAAGUUGUUUUUGAAAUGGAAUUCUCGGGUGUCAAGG	0.274
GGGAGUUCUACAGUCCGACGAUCUGUGCUACACAUCGUAUGUACCGAAUCGGGGUUUUUUUGGUUUUUUUGGGGUUUUUUUGGGGAAAGUAUUAUGUUACGCCGUUCGGAUCUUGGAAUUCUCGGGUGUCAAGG	-0.783
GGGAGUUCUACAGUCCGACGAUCACCAUGCAGGUGGGCAUCUUUGGGAAGAAAGGCAAGGGGGGGAUAGGGAGGGGGGUAACACUUUGGGAACAGGUGGUCCCAGGUCGUUUCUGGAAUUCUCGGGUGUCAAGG	1.62
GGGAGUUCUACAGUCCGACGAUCACCAUGCAGGUGGGCAUCUUUGGCAAGUGGGGCAAGGGGGGGAUAGGGAGGGGGGUAACACUUUGGGAACAGGUGGUCCCAGGUCGUUUCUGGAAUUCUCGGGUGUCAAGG	0.992
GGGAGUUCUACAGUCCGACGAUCAAGUCCUGUGCUACACAUCGUAUGUACCGAAUCGGGUGGGUUUUUGGGUUUUUGGGAAAGUAUUAUGUUACGCCGUUCGGAUCUGCACUUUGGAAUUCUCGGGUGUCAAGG	-0.292
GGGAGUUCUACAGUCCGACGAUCGCAGGAAGUAAAAACAAAUGGAAAUGCUUCGGAUAGUGGCAGGGGUGGGGGUUGCUAAGGAAAGGGUGGGAUGGGAGAGGGUAAAGAGUUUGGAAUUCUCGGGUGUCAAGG	1.37
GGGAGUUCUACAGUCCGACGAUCACCAUGCAGGUGGGCAUCUUUGGGAAGUGGGGCAAGAAAGGGAUAGGGAGGGGGGUAACACUUUGGGAACAGGUGGUCCCAGGUCGUUUCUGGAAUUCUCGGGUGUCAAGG	0.958
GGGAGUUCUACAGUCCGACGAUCAAGUCCUGUGCUACACAUCGUAUGUACCGAAUCGGGAAAGGGGAAAGGGAAAGGGGAAAGUAUUAUGUUACGCCGUUCGGAUCUGCACUUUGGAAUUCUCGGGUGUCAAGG	0.37

Study 5 — target: CCNE1, cyclin fold, Cln2 fusion (human); method: yeast growth competition, sequencing; matrix: yeast; notes: weak parent motif; relative to: not given; direction: higher = stronger binding
Parent: MICAL3 docking peptide (human); LQLRRQLSFSEDS
Variant	normalised enrichment score
R4D	0.0282
D12T	1.27
L3C	5.37
D12G	0.989
S8T	1.1
L7I	0.516
Q6C	1.04
Q6E	0.393
L3W	2.91
S10W	0.36
E11R	0.609
R5F	0.325
E11K	0.438
Q6T	0.684
D12I	1.61
R5Y	0.0935
Q6I	0.598
Q2H	1.16
E11A	0.625
S10F	0.365
S10V	0.575
E11I	0.325
D12H	0.667
Q6S	0.465
S8G	0.166

Study 6 — method: universal PBM; form: double-stranded DNA, one strand shown; matrix: in vitro; tested at: not given; direction: higher = stronger binding
Target: Sal-like protein 4, full length isoform B (SALL4, Homo sapiens, UniProt Q9UJQ4-2, residues 1-616)
Notes: 8-mer, flanks averaged, mean of replicates
Residues (chain): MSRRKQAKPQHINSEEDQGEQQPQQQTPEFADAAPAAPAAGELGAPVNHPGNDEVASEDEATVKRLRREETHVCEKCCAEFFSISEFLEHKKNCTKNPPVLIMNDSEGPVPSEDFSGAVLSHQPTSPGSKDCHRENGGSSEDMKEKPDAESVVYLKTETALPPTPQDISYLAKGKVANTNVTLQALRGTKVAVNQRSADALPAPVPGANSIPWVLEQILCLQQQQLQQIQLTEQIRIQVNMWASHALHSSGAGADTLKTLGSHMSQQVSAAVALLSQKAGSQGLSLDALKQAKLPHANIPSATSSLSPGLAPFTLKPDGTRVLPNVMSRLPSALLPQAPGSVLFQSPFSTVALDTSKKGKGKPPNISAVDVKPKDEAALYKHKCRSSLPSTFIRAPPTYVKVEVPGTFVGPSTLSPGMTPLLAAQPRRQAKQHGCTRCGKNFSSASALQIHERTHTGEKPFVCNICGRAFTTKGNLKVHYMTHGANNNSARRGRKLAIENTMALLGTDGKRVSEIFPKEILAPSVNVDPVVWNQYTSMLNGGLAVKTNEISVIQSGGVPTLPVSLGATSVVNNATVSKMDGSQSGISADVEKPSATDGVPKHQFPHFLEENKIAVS
Oligonucleotide	E-score
ATTGATTA	0.324
CCTACTTA	0.0179
GGGCTCGA	-0.233
CGGGTCGA	-0.334
CAGCATAC	-0.0449
AGTGTCAG	-0.114
TAGTCCAA	-0.0457
CCCTATAA	0.183
CGGCAGGC	-0.295
ATTCGGGG	0.00062
AGCACCCA	-0.118
AGTATGCC	-0.0345
CCGCCGCA	-0.271
ATCAGTCC	-0.282
CAGATGAG	0.0671
ACCAGTAA	0.174
CGGCTTTC	-0.278
AATCCTCC	-0.139
CTGAAATA	0.308
GAGTTCGC	-0.285
GGGGTCCA	-0.338
GTACGCAC	-0.0587

Study 7 — method: Sort-seq; refers to: YFP reporter; matrix: E. coli; notes: PhoQ-PhoP variant library; with: 10 µM Mg2+; relative to: high Mg2+ state; direction: higher = stronger signaling
Substance: PhoQ, residues 284 288 289 292 302 303 SLGVVW
target	fold induction
PhoP, residues 12 14 15 18 19 GMGLL (Escherichia coli, UniProt P23836)	15.4
PhoP, residues 12 14 15 18 19 LFHKL (Escherichia coli, UniProt P23836)	2.88
PhoP, residues 12 14 15 18 19 QQAYL (Escherichia coli, UniProt P23836)	34.4

Some of these lines once more (study 6):
Oligonucleotide	E-score
CAGATGAG	0.0671
CTGAAATA	0.308
CAGCATAC	-0.0449
CGGCTTTC	-0.278
AATCCTCC	-0.139
GAGTTCGC	-0.285
ATTGATTA	0.324
AGTATGCC	-0.0345
AGTGTCAG	-0.114
CCGCCGCA	-0.271
